Results gathered from unrelated publications.
Cell line: COLO 205

For `COc1cc(CNC(=O)C[C@H](C)CCC=C(C)C)ccc1OCc1cn(-c2ccc(Cl)c(Cl)c2)nn1`, the growth percent was 53.6% (SRB; 10 µM, 48 h).
With `O=C(CN1CCN(c2nsc3ccccc23)CC1)N1CCC(=C2c3ncccc3CCc3cc(Cl)cc(Br)c32)CC1` the IC50 was 90 µM (cell growth or viability, SRB).
`CC(Cc1ccc(Cl)cc1)=C(c1ccc(Cl)cc1)c1ccc(OCCN(C)C)cc1` gave a GI50 of 1 µM (cell growth or viability, SRB).
`CC/C=C\C/C=C\C/C=C\C/C=C\C/C=C\C/C=C\CCC(=O)Nc1ccn(C2OC(CO)C(O)C2(F)F)c(=O)n1` (stereo not shown) gave a TGI of 14.1 µM (NCI60 screen).
With `COc1cc(CNC(=O)C[C@H](C)CCC=C(C)C)ccc1O` the growth percent was 106% (SRB; 10 µM, 48 h).
`O=C(CNc1nnc(-c2ccccc2)s1)N1CCC(=C2c3ncccc3CCc3cc(Cl)cc(Br)c32)CC1` gave an IC50 of over 120 µM (cell growth or viability, SRB).
With `COc1cc(CNC(=O)C[C@H](C)CCC=C(C)C)ccc1OCc1cn(-c2cccc([N+](=O)[O-])c2)nn1` the growth percent was 94.4% (SRB; 10 µM, 48 h).
The IC50 of `O=C(CN1CCC(c2noc3cc(F)ccc23)CC1)N1CCC(=C2c3ncccc3CCc3cc(Cl)cc(Br)c32)CC1` is reported as 90 µM (cell growth or viability, SRB).
`COc1cc(CNC(=O)C[C@H](C)CCC=C(C)C)ccc1OCc1cn(-c2cccc(Cl)c2)nn1` gave a growth percent of 103% (SRB; 10 µM, 48 h).
With `CC(=O)OC[C@H]1O[C@@H](Sc2sc(C(=O)c3ccc(Br)cc3)c(N)c2-c2nc3ccccc3s2)[C@H](OC(C)=O)[C@@H](OC(C)=O)[C@@H]1OC(C)=O` the growth was 63.8% (SRB; 10 µM, 48 h; reference: untreated).
`Nn1c(SCC(=O)N2CCC(=C3c4ncccc4CCc4cc(Cl)cc(Br)c43)CC2)nnc1-c1ccccc1` gave an IC50 of under 15 µM (cell growth or viability, SRB).
With `CC(=O)OC[C@H]1O[C@@H](Sc2sc(C(=O)c3ccc(C)cc3)c(N)c2-c2nc3ccccc3s2)[C@H](OC(C)=O)[C@@H](OC(C)=O)[C@H]1OC(C)=O` the growth was 82.6% (SRB; 10 µM, 48 h; reference: untreated).
With `CC(=C(c1ccc(O)cc1)c1ccc(Cl)cc1)c1ccc(Cl)cc1` the GI50 was 2.44 µM (cell growth or viability, SRB).

Repeated from above:
`Nn1c(SCC(=O)N2CCC(=C3c4ncccc4CCc4cc(Cl)cc(Br)c43)CC2)nnc1-c1ccccc1` gave an IC50 of under 15 µM (cell growth or viability, SRB).
